Experimental data collected from several papers.
Every numbered part comes from another study and shows a few of its results, in no order.

Block 1
Target: Fragile X messenger ribonucleoprotein 1, C-terminal low-complexity region (Fmr1, Mus musculus, UniProt P35922)
Technique: RNA Bind-n-Seq
Form: RNA
Sample: in vitro
Tested at: 200 nM
Setting: whole 134-nt RNA, ends assumed
Added: 150 mM KCl
Reference: input library
Reading: higher = stronger binding
Constant ends, left off below: GGGAGUUCUACAGUCCGACGAUC … UGGAAUUCUCGGGUGUCAAGG
`CUGUGCUACACAUCGUAUGUACCGAAUCGGGAAAAAAAGGAAAAAAAGGGGAAAAAAAGGGAAAGUAUUAUGUUACGCCGUUCGGAUCUG` gave a log2 enrichment of -0.901.
`CUGUGCUACACAUCGUAUGUACCGAAUCGGGGCCCCCCCGGGCCCCCCCGGGGCCCCCCCGGAAAGUAUUAUGUUACGCCGUUCGGAUCU` gave a log2 enrichment of -1.26.
`GCAGGAAGUAAAAACAAAUGGAAAUGCUUCAAAUAGUGGCAGGGGUGGGGGUUGCUAAGGAAAGGGUGGGAUGGGAGUGGGUAAAGAGUU` has a log2 enrichment of 0.414.
`UGGGAGGUGGAUUUUGUUUAUUUUUUUAGCUCAUUUCCAGGGGUGGGAAUUUUUUUUUAAUAUGUGUCAUGUAUAAAGUUGUUUUUGAAA` gave a log2 enrichment of 0.518.
For `GCAGGAAGUAAAAACAAAUGGAAAUGCCUCGGAUAGUGGCAGGGGUGGGGGUUGCUAAGGAAAGGGUGGGAUGGGAGUGGGUAAAGAGUU`, the log2 enrichment was 0.348.
With `UCCUGUGCUACACAUCGUAUGUACCGAAUCGGGGUUUUUGGUUUUUGGGGUUUUUGGGGAAAGUAUUAUGUUACGCCGUUCGGAUCUGCA` the log2 enrichment was 0.271.
With `UGGGAGGUGGAUUUUGUUUAUUUUUUUAGCUCAUUUCCAGGGGUGGGAAUUUUUUUUUAAUAUGCGUCAUGAAUAAAGUUGUUUUUGAAA` the log2 enrichment was 0.0603.
With `GCAGGAAGUAAAAACAAAUGGAAAUGCUUCGGAUAGUAAAAGGGGUGGGGGUUGCUAAGGAAAGGGUGGGAUGGGAGUGGGUAAAGAGUU` the log2 enrichment was 0.0304.
`AGUCCUGUGCUACACAUCGUAUGUACCGAAUCGGAAAAAGGUUUUUGGUUUUUUUGGAAAGUAUUAUGUUACGCCGUUCGGAUCUGCACU` gave a log2 enrichment of -1.32.
`UCCUGUGCUACACAUCGUAUGUACCGAAUCGGGGUUUUUUUGGGGUUUUUGGGGAGGGGAAAGUAUUAUGUUACGCCGUUCGGAUCUGCA` gave a log2 enrichment of 0.694.
`AGUCCUGUGCUACACAUCGUAUGUACCGAAUCGGGAAAGGGAAAAAAAGGGUUUGGGAAAGUAUUAUGUUACGCCGUUCGGAUCUGCACU` has a log2 enrichment of 0.0682.
`CACAGACAACACGCACCCACACAGAGACAGAGGGAAGGGGUUGGGAUGGGGACAGGGUGCACAGCAGGGCGGGGUAGGACCCCAGCCCCU` has a log2 enrichment of 1.23.
With `GGCACAGGUGCCCGACCAUACACUGGGAAAGUUGGUGCUGAGGAUGCCGAUGGGAUUGACAUGGCCUACCGGGUGCUGGCUGACCACGCU` the log2 enrichment was -0.86.
`AAGUCCUGUGCUACACAUCGUAUGUACCGAAUCGGGGUUUGGUUUGGGGUUUGGGGAAAGUAUUAUGUUACGCCGUUCGGAUCUGCACUU` has a log2 enrichment of 0.477.

Block 2
Target: Histone acetyltransferase KAT6A, both winged helices, GST fusion (KAT6A, Homo sapiens, UniProt Q92794, residues 1-181)
Technique: protein binding microarray
Form: double-stranded DNA, one strand shown
Sample: in vitro
Tested at: not given
Setting: 8-mer, flanks averaged, mean of 2 arrays, mostly near background
Reference: not given
Reading: higher = stronger binding
Construct (chain): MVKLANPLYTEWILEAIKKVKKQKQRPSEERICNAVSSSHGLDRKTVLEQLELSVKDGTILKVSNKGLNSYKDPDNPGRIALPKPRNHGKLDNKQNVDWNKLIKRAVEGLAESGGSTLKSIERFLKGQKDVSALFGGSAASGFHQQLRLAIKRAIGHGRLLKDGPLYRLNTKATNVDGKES
With `AATCCGAA` the E-score was -0.0423.
With `GAGACCGA` the E-score was 0.0407.
The E-score of `ACCCTAGA` is reported as -0.122.
For `GAAGATAC`, the E-score was 0.109.
The E-score of `ACGTGTAC` is reported as -0.112.
With `ACACCTCA` the E-score was -0.0541.
With `ATAACGGC` the E-score was 0.276.
The E-score of `CCCTCAGC` is reported as -0.0632.
`CCGCCCCC` has an E-score of 0.0681.
With `ATGATAAT` the E-score was -0.0388.
With `ATCCCGCA` the E-score was 0.148.
For `ACAACGCG`, the E-score was 0.19.
With `ATAGTAGA` the E-score was -0.224.
For `ATGGCTAG`, the E-score was -0.153.
With `CAATAAGG` the E-score was -0.184.
The E-score of `CCGACTCA` is reported as 0.0213.
The E-score of `ACTACACT` is reported as -0.136.
`CCTAGACG` gave an E-score of 0.0122.
With `TAGTTTAA` the E-score was -0.0385.
`TCAAGTGA` gave an E-score of -0.21.
For `AGTACGTA`, the E-score was -0.0768.
With `GACTCAAA` the E-score was -0.152.
`ACGTTCCT` gave an E-score of -0.0416.
With `AAAGTCGC` the E-score was 0.0358.
`CAAAAAGC` gave an E-score of 0.0639.

Block 3
Target: Interferon regulatory factor 7, full length, phosphomimetic (IRF7, Homo sapiens, UniProt Q92985, residues 1-503, S101K/S471D/S472D/S475D/S476D/S477D/S483D/S484D/S487D)
Technique: protein-binding microarray
Form: double-stranded DNA, one strand shown
Sample: in vitro
Tested at: 250 nM
Setting: 60-bp whole probe
Added: salmon DNA 0.4 mg/ml
Reference: random background probes
Reading: higher = stronger binding
Constant ends, left off below: GCCTAGCAC … GTCTTGATTCGCTTGACGCTGCTG
Construct (chain): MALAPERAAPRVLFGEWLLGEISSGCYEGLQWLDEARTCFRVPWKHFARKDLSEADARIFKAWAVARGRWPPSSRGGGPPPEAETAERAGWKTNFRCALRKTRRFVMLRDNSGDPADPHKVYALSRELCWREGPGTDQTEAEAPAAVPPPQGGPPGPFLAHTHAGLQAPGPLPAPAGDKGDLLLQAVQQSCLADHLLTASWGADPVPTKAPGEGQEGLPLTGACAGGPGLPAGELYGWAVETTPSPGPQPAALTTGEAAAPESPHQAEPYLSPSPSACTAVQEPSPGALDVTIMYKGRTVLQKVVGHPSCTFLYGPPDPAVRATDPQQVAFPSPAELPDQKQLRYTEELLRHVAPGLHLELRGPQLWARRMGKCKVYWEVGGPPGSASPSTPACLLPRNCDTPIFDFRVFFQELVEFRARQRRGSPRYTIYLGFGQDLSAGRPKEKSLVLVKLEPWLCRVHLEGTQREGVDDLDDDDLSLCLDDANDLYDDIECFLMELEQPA
`GACGGTCTCGGTCTCGGGTCGTGCTAG` has a log fluorescence of 2 z-score.
For `CCAGTGCTTGCTCCCCTGCAGTGCTAG`, the log fluorescence was -0.934 z-score.
`TCAATTTTCAATTCCTGACTGTGCTAG` gave a log fluorescence of 0.49 z-score.
For `GACGGTTGCGACTTTCGGGACGTGCTA`, the log fluorescence was 0.309 z-score.
With `TCAGATCTCAGTTTCGATTAGTGCTAG` the log fluorescence was 8.3 z-score.
The log fluorescence of `ATGTCTTCCCCTCTCTTTCCGTGCTAG` is reported as 1.28 z-score.
With `TCATTTTACTTTCTATGACTGTGCTAG` the log fluorescence was 1.98 z-score.
`TGCTGGTTTTGTGGTCTAATGTGCTAG` gave a log fluorescence of -0.267 z-score.
For `TTAGATTTCACTCTCGATTAGTGCTAG`, the log fluorescence was 1.24 z-score.
For `GACGAACTGGGGTAACGAGACGTGCTA`, the log fluorescence was -0.498 z-score.
`GACGATCTCACACTGGAGACGTGCTAG` has a log fluorescence of -0.285 z-score.
The log fluorescence of `CACGATATCAGTTTCGAGACGTGCTAG` is reported as 4.33 z-score.
`TTATGTATCGACTTTCGGTTAGTGCTA` has a log fluorescence of 1.95 z-score.
`TTAGGATTCCTTCTCCTTTAGTGCTAG` has a log fluorescence of 0.572 z-score.
The log fluorescence of `ATGTCTTCCCCTCTCATTCCGTGCTAG` is reported as 1.37 z-score.
For `TTAGTTATCAGTATCGATTAGTGCTAG`, the log fluorescence was 1.4 z-score.
The log fluorescence of `TTAGGACTGGGGTATCGGTTTGTGCTA` is reported as 2.14 z-score.
The log fluorescence of `TACGATTTCAGACTGGAGACGTGCTAG` is reported as 0.265 z-score.
`TTAGATTTCGGGTATCGGTTAGTGCTA` has a log fluorescence of 1.55 z-score.
For `TTAGGTTACGACTTTCGGTTAGTGCTA`, the log fluorescence was 2.01 z-score.
The log fluorescence of `GACGGACTGGGTTTCGGGAGGTGCTAG` is reported as 0.633 z-score.
The log fluorescence of `TCAAAAATCTTTGTTGGAACTGTGCTA` is reported as -0.269 z-score.
`TCATATTTATAAATTATACTGTGCTAG` has a log fluorescence of 0.873 z-score.
For `GACGGTCTCCTTATCCTGAAGTGCTAG`, the log fluorescence was 0.188 z-score.
The log fluorescence of `TTAGGACTGGGTATCGTTTAGTGCTAG` is reported as 0.799 z-score.

Block 4
Target: Prothrombin, mature alpha-thrombin (F2, Homo sapiens, UniProt P00734)
Technique: aptamer microarray, sandwich
Form: DNA with 2'F-ANA
Sample: in vitro
Tested at: 200 nM
Setting: whole 15-mer aptamer, many near background
Added: Cy3 exosite-II aptamer, 400 nM
Reading: higher = stronger binding
Sequence: GGTTGGTGTGGTTGG
For `2'F-ANA at 2 4 10 11 14 15`, “mean fluorescence intensity” read 57.6 a.u.
Under “mean fluorescence intensity”, `2'F-ANA at 2 3 6 7 9 10 13 14` is recorded as 300 a.u.
`2'F-ANA at 1 3 4 5 6 7 11 12 13` — result for “mean fluorescence intensity”: 66.1 a.u.
`2'F-ANA at 2 3 5 7 9 11 14`: “mean fluorescence intensity” 53.3 a.u.
Under “mean fluorescence intensity”, `2'F-ANA at 1 2 3 5 8 12 13` is recorded as 102 a.u.
Under “mean fluorescence intensity”, `2'F-ANA at 2 3 9 11 13 14 15` is recorded as 344 a.u.
`2'F-ANA at 1 2 7 8 9 10 12 13` — result for “mean fluorescence intensity”: 62.6 a.u.
For `2'F-ANA at 2 5 6 9 10 12 15`, “mean fluorescence intensity” read 51.4 a.u.
`2'F-ANA at 1 2 3 6 7 11 13 14 15`: “mean fluorescence intensity” 62 a.u.
`2'F-ANA at 2 4 8 9 11 15`: “mean fluorescence intensity” 237 a.u.
`2'F-ANA at 1 2 3 4 14` — result for “mean fluorescence intensity”: 148 a.u.
`2'F-ANA at 3 11 12 13 14` — result for “mean fluorescence intensity”: 698 a.u.
For `2'F-ANA at 2 3 6 7 8 9 10 11 12 13 15`, “mean fluorescence intensity” read 297 a.u.
For `2'F-ANA at 1 7 10 14`, “mean fluorescence intensity” read 60.3 a.u.
For `2'F-ANA at 1 2 4 5 7 9 13 15`, “mean fluorescence intensity” read 48.3 a.u.
`2'F-ANA at 2 5 6 7 13`: “mean fluorescence intensity” 109 a.u.
`2'F-ANA at 1 2 3 5 6 7 9 10 11 12 14 15`: “mean fluorescence intensity” 47.5 a.u.
`2'F-ANA at 1 2 3 4 5 6 11 13 15`: “mean fluorescence intensity” 72.4 a.u.
`2'F-ANA at 1 2 3 5 8 9 12` — result for “mean fluorescence intensity”: 175 a.u.
`2'F-ANA at 1 5 14 15` — result for “mean fluorescence intensity”: 42.5 a.u.
For `2'F-ANA at 4 5 7 10 11 14`, “mean fluorescence intensity” read 42.5 a.u.
`2'F-ANA at 1 2 5 11 13 14`: “mean fluorescence intensity” 47.7 a.u.
`2'F-ANA at 1 3 5 7 8 9 10 11 13`: “mean fluorescence intensity” 48.9 a.u.
Under “mean fluorescence intensity”, `2'F-ANA at 1 2 3 4 5 6 10 11 12 14` is recorded as 57 a.u.

Repeated from above (block 2):
The E-score of `CCGACTCA` is reported as 0.0213.
With `AATCCGAA` the E-score was -0.0423.
`ACGTTCCT` gave an E-score of -0.0416.
With `ATGATAAT` the E-score was -0.0388.
With `ATAACGGC` the E-score was 0.276.
The E-score of `ACTACACT` is reported as -0.136.
With `ATCCCGCA` the E-score was 0.148.
